Experimental data from different studies.
Protocols differ between the studies behind these lines. ± marks the error that the study gave.

`CC(=O)c1ccc(NC(=O)CSc2nnc(-c3ccc(NC(=O)c4cccnc4)cc3)n2N)cc1` gave an IC50 of 17 µM (RAW264.7; IL-6 release, inhibitor, ELISA; LPS-stimulated).
`CCNC(=O)Nc1ccc(S(=O)(=O)Oc2cccnc2I)cc1` gave an IC50 of 0.8 µM (MOLM-13; cell growth or viability, MTT; 48 h).
For `C(=C\c1ccccc1)/c1ccccc1`, the IC50 was 340 µM (U-937; cell growth or viability, ATP luminescence; 24 h).
`Cn1c(=O)c(/C=C/c2ccccc2)nc2ccccc21` gave an IC50 of 19.1 µM (HeLa 229; cell growth or viability, MTT; 72 h).
For `O=C1C(n2nc(-c3c(O)c4ccccc4oc3=O)cc2-c2ccc(Cl)cc2)c2cc(Cl)ccc2N1Cc1ccccc1` (centres unmarked), the IC50 was 1.09 µM (A-375; cell growth or viability, SRB; 72 h).
`CCCCCOC(=O)Nc1nc(=O)n([C@@H]2O[C@H](C)[C@@H](O)[C@H]2O)cc1F` gave an IC50 of over 200 µM (BXPC-3; cell growth or viability, MTT; 72 h).
`O=C1C(SCCO)=C(SCCO)C(=O)c2ccccc21` gave an IC50 of 11.3 ± 1.56 µM (hiPSC hepatic differentiation phase I; cell viability, CCK-8; 48 h).
With `Cc1cc(C(=O)/C(=C/c2cc(Br)cs2)c2cc(Br)cs2)c(C(=O)N2CCCCC2)c(=O)[nH]1` the IC50 was over 10 µM (A-375; cell growth or viability, MTT; 72 h).
The IC50 of `CC(C)/C=C/c1c(O)cc(/C=C/c2ccccc2)cc1O` is reported as 0.35 µg/mL (HL-60; reactive oxygen species, inhibitor, fluorescence).
`CC(C)NC[C@@H](C(=O)N1CCN(c2ncnc3c2[C@H](C)C[C@H]3O)CC1)c1ccc(Cl)cc1` gave an IC50 of 8.4 ± 0.48 µM (cancer cell lines without alterations; cell viability, CellTiter-Glo; 4 days).
The IC50 of `Nc1nc2sc(CCCCCCc3ccc(C(=O)N[C@@H](CCC(=O)O)C(=O)O)cc3)cc2c(=O)[nH]1` is reported as 0.0047 to 0.334 µM (KB and IGROV-1; cell growth).
`CC(C)Oc1ccc(C(=O)Cn2ccnc2)cc1-n1c(CN2CCN(C(=O)COc3ccc(Cl)cc3)CC2)nc2ccccc2c1=O` has an IC50 of under 0.1 µM (SU-DHL10; cell viability, CellTiter-Glo; 24 h).
`Cc1ccc(NC(=O)CSc2nnc(-c3ccc(NC(=O)c4cccnc4)cc3)n2N)cc1` has an IC50 of 11.1 µM (RAW264.7; TNF-α release, inhibitor, ELISA; LPS-stimulated).
`Ic1cccc2cnccc12` has an IC50 of 1.9 µM (axotomized mouse DRG neurons; NfL release, ELISA, item: neurofilament light chain; culture supernatant).
`Cc1ccc(C)c(NC(=O)CSc2nnc(-c3ccc(NC(=O)c4cccnc4)cc3)o2)c1` gave an IC50 of 14.1 µM (RAW264.7; reactive oxygen species, inhibitor, fluorescence; LPS-stimulated).
The IC50 of `COc1cc(C(Nc2ccccn2)c2cc3c(cc2O)OCO3)cc(OC)c1OC` (centres unmarked) is reported as 3 to 10 µM (HeLa Stat3-luciferase; reporter gene; 8 h, with: OSM).
For `Cn1c(=O)c(/C=C/c2ccc(F)cc2)nc2ccccc21`, the IC50 was 43.2 µM (HeLa 229; cell growth or viability, MTT; 72 h).
`O=C(CSc1nnc(-c2n[nH]c(=O)c3ccccc23)o1)Nc1ccc(Cl)cc1` gave an IC50 of 45.7 µM (WI-38; cell growth or viability, MTT; 48 h).
`C=CCc1ccc(OCc2nn(CN3CCCC3)c(=S)o2)c(OC)c1` gave an IC50 of at most 10 µM (MCF7, SK-OV-3, PC-3; cell growth, MTT).
`CCN1C(=O)C(n2nc(-c3c(O)c4ccccc4oc3=O)cc2-c2ccc(Cl)cc2)c2ccccc21` (centres unmarked) gave an IC50 of 33.8 µM (A-375; cell growth or viability, SRB; 72 h).
With `O=C(CCOCCOc1c2cccc1Cc1cccc(c1O)Cc1cccc(c1O)Cc1cccc(c1O)C2)Nc1ccc(-n2nc(-c3ccccc3O)nc2-c2ccccc2O)cc1` the IC50 was 37 ± 3 µM (HepaRG; cell viability, MTT; 72 h, with: Fe(III) 20 µM).
The IC50 of `O=C1O[C@H]([C@@H](O)CO)C(O)=C1O` is reported as over 200 µM (SH-SY5Y; cell growth or viability, SRB; 24 h).
With `CC(C)C[C@H](NC(=O)[C@@H](O)[C@H](N)Cc1ccccc1)C(=O)O` the IC50 was 2.47 µM (U-937; aminopeptidase activity; with: Ala-AMC 50).

Some of these lines once more:
With `O=C(CCOCCOc1c2cccc1Cc1cccc(c1O)Cc1cccc(c1O)Cc1cccc(c1O)C2)Nc1ccc(-n2nc(-c3ccccc3O)nc2-c2ccccc2O)cc1` the IC50 was 37 ± 3 µM (HepaRG; cell viability, MTT; 72 h, with: Fe(III) 20 µM).
